# Assay results of several laboratories.
# A part holds a random share of what one study measured.

# Set 1
# Target: Transcription factor Sp1 (SP1, Homo sapiens, UniProt P08047, residues 1-785, full length assumed)
# Sequence of UniProt P08047 (whole entry, looked up): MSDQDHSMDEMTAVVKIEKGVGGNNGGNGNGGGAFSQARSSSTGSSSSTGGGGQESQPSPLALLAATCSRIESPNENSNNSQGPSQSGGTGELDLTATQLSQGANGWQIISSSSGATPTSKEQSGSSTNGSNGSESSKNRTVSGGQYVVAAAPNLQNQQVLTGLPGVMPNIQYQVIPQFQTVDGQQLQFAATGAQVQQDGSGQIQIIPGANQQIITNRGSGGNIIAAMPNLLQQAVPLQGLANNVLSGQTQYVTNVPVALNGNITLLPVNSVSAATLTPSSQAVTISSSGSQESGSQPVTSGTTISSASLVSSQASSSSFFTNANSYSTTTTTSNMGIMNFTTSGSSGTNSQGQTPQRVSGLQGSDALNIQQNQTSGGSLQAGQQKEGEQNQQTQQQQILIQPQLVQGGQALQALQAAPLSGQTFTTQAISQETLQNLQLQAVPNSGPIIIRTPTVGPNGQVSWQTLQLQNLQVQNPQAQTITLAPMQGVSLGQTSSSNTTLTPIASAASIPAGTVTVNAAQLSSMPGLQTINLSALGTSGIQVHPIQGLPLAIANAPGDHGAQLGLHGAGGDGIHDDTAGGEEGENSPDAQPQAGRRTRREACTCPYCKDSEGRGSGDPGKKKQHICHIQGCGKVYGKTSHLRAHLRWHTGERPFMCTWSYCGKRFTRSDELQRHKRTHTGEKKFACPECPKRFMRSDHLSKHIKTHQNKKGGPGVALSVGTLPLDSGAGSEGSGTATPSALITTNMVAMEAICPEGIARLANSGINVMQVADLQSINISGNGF
# Technique: protein-binding microarray
# Form: double-stranded DNA, one strand shown
# Medium: in vitro
# Tested at: not given
# Notes: k-mer, scored over probes, only values ≥0.25
# Direction: higher = stronger binding
Oligonucleotide,E-score
AGGGTATA,0.263
AGGGGAGG,0.468
CAGGCGGG,0.252
CCCCATCA,0.337
GCCCACCC,0.47
ACAGACAA,0.276
ACAGGGTA,0.265
TAAGGGGA,0.315
GCATAGTA,0.275
AGGCGTGG,0.327
ACTAGTGG,0.31
ATACCATC,0.259
TACACCCA,0.31
GGGGAATA,0.285

# Set 2
# Target: Sal-like protein 4, full length isoform B (SALL4, Homo sapiens, UniProt Q9UJQ4-2, residues 1-616)
# Technique: universal PBM
# Form: double-stranded DNA, one strand shown
# Medium: in vitro
# Tested at: not given
# Notes: 8-mer, flanks averaged, mean of replicates
# Direction: higher = stronger binding
Oligonucleotide,E-score
CTGGGCTA,-0.286
CTGGAGTA,-0.025
CGGATCAC,-0.224
TAAATAAA,0.346
AGGCGCAC,-0.269
GCTTGAAA,0.127
CGCTATCC,-0.0727
CTTTAGCC,0.122
ATGTAAAC,0.223
AATATTTG,0.443
CTAAGAAA,0.0427
AGTTCGAT,0.171
AATTAATA,0.482
GGAAGGTA,0.0604
AACCACCA,-0.089

# Set 3
# Target: PABPC1L2, full length, GST fusion (mouse, UniProt A0ABA7IW68)
# Technique: RNAcompete
# Form: RNA
# Medium: in vitro
# Tested at: 20 nM
# Notes: 7-mer, probes averaged, single round
# Reference: mean of 7-mers
# Direction: higher = stronger binding
# Residues (chain): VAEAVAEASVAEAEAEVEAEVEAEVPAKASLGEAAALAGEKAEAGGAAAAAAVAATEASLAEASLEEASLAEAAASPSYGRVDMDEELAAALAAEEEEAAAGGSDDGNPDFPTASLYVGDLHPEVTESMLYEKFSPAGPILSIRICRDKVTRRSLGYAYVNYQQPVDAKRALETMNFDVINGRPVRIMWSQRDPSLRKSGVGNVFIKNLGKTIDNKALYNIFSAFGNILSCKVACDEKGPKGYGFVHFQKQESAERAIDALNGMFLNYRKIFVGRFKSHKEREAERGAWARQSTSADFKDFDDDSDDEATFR
Oligonucleotide,7-mer Z-score
AUCUGGC,-0.0319
CCGAACG,-0.168
AGAAGCA,0.0152
GGACCAU,0.142
UCGAAGU,-0.28
AGGUUGG,0.0823
CUCGGCA,-0.0699
UUUUAAA,0.238
GGCGACG,0.242
GACUUUA,-0.106
GUGGGUG,0.0243
CACCCAG,-0.179
GUACAAU,0.0279
GAUAGAU,-0.0591

# Set 4
# Target: UBE2B UBC core domain (UniProt P63146)
# Sequence of UniProt P63146 (whole entry, looked up): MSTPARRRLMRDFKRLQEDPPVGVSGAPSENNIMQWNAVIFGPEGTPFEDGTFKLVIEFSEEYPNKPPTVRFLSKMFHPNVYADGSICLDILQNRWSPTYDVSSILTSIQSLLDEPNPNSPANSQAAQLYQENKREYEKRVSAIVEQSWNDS
# Technique: yeast two-hybrid
# Medium: yeast
# Notes: mostly zero background
# Reference: not given
# Direction: higher = stronger interaction
# B1: ANKIB1 RING domain (UniProt Q9P2G1); chain LSPGDLDTSLCDICMCSISVFEDPVDMPCGHDFCRGCWESFLNLKIQEGEAHNIFCPAYDCFQLVPVDIIE
# B2: TRIM52 RING domain (UniProt Q96A61); chain PMQTLQEEAVCAICLDYFKDPVSISCGHNFCRGCVTQLWSKEDEEDQNEEEDEWEEEEDEEAV
# B3: UBE4A RING domain (UniProt Q14139); chain LQQQEEETYADACDEFLDPIMSTLMCDPVVLPSSRVTVDRSTIARHLLSDQTDPFNRSPLTMDQIRPNTELKEKIQRWLAERKQQKEQLE
# B4: RNF32 RING domain (UniProt Q9H0A6); chain SLLQGDSVQPCPICKEEFELRPQVLLSCSHVFHKACLQAFEKFTNKKTCPLCRKNQYQTRVIH
# B5: RNF150 RING domain (UniProt Q9ULK6); chain DKETESDFDNCAVCIEGYKPNDVVRILPCRHLFHKSCVDPWLLDHRTCPMCKMNILKALGIP
Sequence,lacZ reporter activity
B1 (ANKIB1 RING domain),0
B2 (TRIM52 RING domain),0
B3 (UBE4A RING domain),0
B4 (RNF32 RING domain),0
B5 (RNF150 RING domain),0
ISNDSETLEECMVCSDMKRDTLFGPCGHIATCSLCSPRVKKCLICKEQVQSRTKIE (MIB1 RING domain (UniProt Q86YT6)),0

# Set 5
# Target: RING finger protein unkempt homolog, zinc fingers 1-6, GST-SBP tag (UNK, Homo sapiens, UniProt Q9C0B0, residues 30-357)
# Sequence of UniProt Q9C0B0 (30-357, looked up): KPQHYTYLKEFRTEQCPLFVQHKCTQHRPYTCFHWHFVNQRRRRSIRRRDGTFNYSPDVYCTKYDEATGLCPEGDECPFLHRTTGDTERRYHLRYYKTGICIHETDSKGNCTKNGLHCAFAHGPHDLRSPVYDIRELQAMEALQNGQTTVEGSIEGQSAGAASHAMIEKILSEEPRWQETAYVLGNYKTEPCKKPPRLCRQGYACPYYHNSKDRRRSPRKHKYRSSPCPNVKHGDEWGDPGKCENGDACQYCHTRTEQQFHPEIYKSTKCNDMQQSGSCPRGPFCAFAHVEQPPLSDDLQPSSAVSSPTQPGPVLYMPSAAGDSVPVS
# Technique: RNA Bind-n-Seq
# Form: RNA
# Medium: in vitro
# Tested at: not given
# Notes: RNA with constant flanks, human and mouse sites, ends assumed
# Reference: input RNA pool
# Direction: higher = stronger binding
# Constant ends, left off below: GGGAGUUCUACAGUCCGACGAUC … CAACAGAGGAUUGAGCAUCA
Oligonucleotide,bound/input enrichment [ratio]
GCAGGGAUCCUGUCAGCCCUGGGUUCUAAGACAUCACUGAUGAUACGGCAUGAUAAGGUACUUAGAAGUUUUGAUUCAAUGAUCAGCACCAACUGCACGGAGGAGCUGGAGAACGCUGGC,0.248
CUCAAUGCCUUAACCAAGCGUGUCUCCCCACUGAUAGGACGUUUUGUUCCCUUCGCUGCUGUAGCUGCUGCUAACUGCAUUAACAUCCCACUGAUGAGACAAAGGGAGCUGAAGGUUGGU,0.193
AAUUUAGAGGAGUAUCUAAGACUGGUUAUAUUCUGGGCACUAAAUGAAGGCGUUUCUAGGCAAUUUGAUUCGUUCAGAGAUGGAUUUGAAUCAGUCUUCCCACUCAGUCAUCUUCAGUAC,0.258
UGUUUUUUGUUUUGUUUUUUGUUUUUAUAUACUGUAGUGUUUUAACCAAACAGUUGUGGCUACUCAUGGUGAGGAAUGACCGCUAAGAGUGUGGGUUCUUUGCAAUACAUUUGGAGGUCA,1.51
CCUCUUGCUCUAGAUAACAUACAUUUAGAGAAGCCUCAGUAUAAAGAAGAUGGAAAAUUGCAACUUGUUGGUGAUGUAAUUGAUUUGCGUACAGUACCAAAGGUAGAAGUUAAAACAACU,0.264
CGAUUACACAGGGUCAAGACCGUCUGCAGCAAGCACAUGCAUCCCCUCCGACUGGUGUGAGUAGUAAGAAAAGCACACACAGACAGGAGGACAUCUGGAGCCACACAAACUGGGUGGAAA,0.11
UUAGAUAAGCAGGUGAAAAACGGACCCUCAUUAACAGAAGCACUGGAAAAUGCUGGAAUUUUCUAUGAAGCACAAUACAAAGAAGUAAAAGUGGUGGCUAAUGCAUAUAAAACCUUUGCU,0.569
UCCCAUGACCAAAGGACUCUGAUCACUGGCAUGGCUUCCGGCAGCAUUGUAGCUUUUAAUAUAGAUUUUAAUCGGUGGCAUUAUGAGCAUCAGAACAGGUACUGAAGAGAAGCAGCAGAA,1.64
CCCCCAACUGCCAAUGAGAAGGCUGAUACUGAGGUUUCAGCAGCUGCUGCCAGGCCUAAGACAGGCUUUAAGGCCCAGAAUGCCACCACAAAGGGGCCAAAUGAUUACUCUCAGGCACGU,0.167
CUGGCAGUUGAGAGACUGUUGGAGCCUCUUGUUACACAGGUUACAACCCUUGUAAACACCAAUAGUAAAGGGCCCUCUAAUAAGAAGAGAGGUCGUUCUAAGAAGGCCCAUGUUUUGGCU,4.53

# Set 6
# Target: Interferon regulatory factor 7, full length, phosphomimetic (IRF7, Homo sapiens, UniProt Q92985, residues 1-503, S101K/S471D/S472D/S475D/S476D/S477D/S483D/S484D/S487D)
# Technique: protein-binding microarray
# Form: double-stranded DNA, one strand shown
# Medium: in vitro
# Tested at: 250 nM
# Notes: 60-bp whole probe
# Added: salmon DNA 0.4 mg/ml
# Reference: random background probes
# Direction: higher = stronger binding
# Constant ends, left off below: GCCTAGCAC … GTCTTGATTCGCTTGACGCTGCTG
# Target sequence (chain): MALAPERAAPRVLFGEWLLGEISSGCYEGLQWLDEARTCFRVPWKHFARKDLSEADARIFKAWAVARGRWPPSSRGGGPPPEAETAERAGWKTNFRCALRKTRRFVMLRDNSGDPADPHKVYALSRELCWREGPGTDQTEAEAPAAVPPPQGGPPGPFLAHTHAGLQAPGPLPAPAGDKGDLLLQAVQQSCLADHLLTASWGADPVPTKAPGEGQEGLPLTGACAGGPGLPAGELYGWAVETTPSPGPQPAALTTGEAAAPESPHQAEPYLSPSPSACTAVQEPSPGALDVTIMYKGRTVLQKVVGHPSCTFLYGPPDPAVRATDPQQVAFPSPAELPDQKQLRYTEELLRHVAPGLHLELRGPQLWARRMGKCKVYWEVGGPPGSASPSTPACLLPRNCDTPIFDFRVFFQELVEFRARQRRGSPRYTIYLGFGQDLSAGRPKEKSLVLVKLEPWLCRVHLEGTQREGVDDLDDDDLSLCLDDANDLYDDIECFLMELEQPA
Oligonucleotide,log fluorescence
GACGGGCTCCTTATCCTGACGTGCTAG,0.0353 z-score
TGTGCTTTCCTGATGACCCTGTGCTAG,0.18 z-score
GACGGACTGGAATATCGGGACGTGCTA,-0.548 z-score
TTAGGACTTGGGACTGGGTTAGTGCTA,-0.372 z-score
TTAGGTCTCCTTTCCCTTTAGTGCTAG,1.69 z-score
GCAAGAGGAAAGGAACATCAGTGCTAG,-0.575 z-score
GACGGACTCCTTATCCTGACGTGCTAG,-0.14 z-score
CTAGTTTTCATTTTCTGAATGTGCTAG,5.95 z-score
GACGGTTTCGGGTTTCGGAACGTGCTA,12.7 z-score
GACGGACTGGGGGATCGGGACGTGCTA,0.0753 z-score
TTCCTTATTGCTTCCTCTTTGTGCTAG,1.85 z-score
TTAGATTGCGGGTATCGATTAGTGCTA,0.191 z-score
TCTCCTTTCCAAATACCCTCGTGCTAG,1.75 z-score

# Set 7
# Target: Histone acetyltransferase KAT6A, winged helix 2, GST fusion (KAT6A, Homo sapiens, UniProt Q92794, residues 85-181)
# Technique: protein binding microarray
# Form: double-stranded DNA, one strand shown
# Medium: in vitro
# Tested at: not given
# Notes: 8-mer, flanks averaged, mean of 2 arrays, mostly near background
# Reference: not given
# Direction: higher = stronger binding
# Target sequence (chain): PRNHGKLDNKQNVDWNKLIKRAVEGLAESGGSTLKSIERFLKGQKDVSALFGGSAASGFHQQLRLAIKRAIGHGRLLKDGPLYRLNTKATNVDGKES
Oligonucleotide,E-score
CACACAAA,0.221
GCCATGGC,-0.118
CGCCGACC,0.211
AACGGGGG,-0.0521
GCACCTGA,-0.00407
AACGAACC,0.0963
AGTGTCCC,0.0346
GACGGCAC,0.117
ATCCGACC,0.0712
AGCCAGGA,0.00048
AAATTTCC,0.0056
CCTCCTAG,-0.0493
AGGCTGGG,0.0998
ACCGGTAA,-0.114
GAGGATCC,-0.0146

# Repeated from above (set 6):
Oligonucleotide,log fluorescence
TTAGGTCTCCTTTCCCTTTAGTGCTAG,1.69 z-score
GCAAGAGGAAAGGAACATCAGTGCTAG,-0.575 z-score
CTAGTTTTCATTTTCTGAATGTGCTAG,5.95 z-score
TCTCCTTTCCAAATACCCTCGTGCTAG,1.75 z-score
GACGGTTTCGGGTTTCGGAACGTGCTA,12.7 z-score
TTCCTTATTGCTTCCTCTTTGTGCTAG,1.85 z-score
TTAGGACTTGGGACTGGGTTAGTGCTA,-0.372 z-score
GACGGACTGGAATATCGGGACGTGCTA,-0.548 z-score
GACGGACTCCTTATCCTGACGTGCTAG,-0.14 z-score
TGTGCTTTCCTGATGACCCTGTGCTAG,0.18 z-score
